Results from different studies.
A part holds a random share of what one study measured.

Block 1
Target: Sal-like protein 4, full length isoform A (SALL4, Homo sapiens, UniProt Q9UJQ4, residues 1-1053)
UniProt Q9UJQ4, sequence (whole entry, looked up): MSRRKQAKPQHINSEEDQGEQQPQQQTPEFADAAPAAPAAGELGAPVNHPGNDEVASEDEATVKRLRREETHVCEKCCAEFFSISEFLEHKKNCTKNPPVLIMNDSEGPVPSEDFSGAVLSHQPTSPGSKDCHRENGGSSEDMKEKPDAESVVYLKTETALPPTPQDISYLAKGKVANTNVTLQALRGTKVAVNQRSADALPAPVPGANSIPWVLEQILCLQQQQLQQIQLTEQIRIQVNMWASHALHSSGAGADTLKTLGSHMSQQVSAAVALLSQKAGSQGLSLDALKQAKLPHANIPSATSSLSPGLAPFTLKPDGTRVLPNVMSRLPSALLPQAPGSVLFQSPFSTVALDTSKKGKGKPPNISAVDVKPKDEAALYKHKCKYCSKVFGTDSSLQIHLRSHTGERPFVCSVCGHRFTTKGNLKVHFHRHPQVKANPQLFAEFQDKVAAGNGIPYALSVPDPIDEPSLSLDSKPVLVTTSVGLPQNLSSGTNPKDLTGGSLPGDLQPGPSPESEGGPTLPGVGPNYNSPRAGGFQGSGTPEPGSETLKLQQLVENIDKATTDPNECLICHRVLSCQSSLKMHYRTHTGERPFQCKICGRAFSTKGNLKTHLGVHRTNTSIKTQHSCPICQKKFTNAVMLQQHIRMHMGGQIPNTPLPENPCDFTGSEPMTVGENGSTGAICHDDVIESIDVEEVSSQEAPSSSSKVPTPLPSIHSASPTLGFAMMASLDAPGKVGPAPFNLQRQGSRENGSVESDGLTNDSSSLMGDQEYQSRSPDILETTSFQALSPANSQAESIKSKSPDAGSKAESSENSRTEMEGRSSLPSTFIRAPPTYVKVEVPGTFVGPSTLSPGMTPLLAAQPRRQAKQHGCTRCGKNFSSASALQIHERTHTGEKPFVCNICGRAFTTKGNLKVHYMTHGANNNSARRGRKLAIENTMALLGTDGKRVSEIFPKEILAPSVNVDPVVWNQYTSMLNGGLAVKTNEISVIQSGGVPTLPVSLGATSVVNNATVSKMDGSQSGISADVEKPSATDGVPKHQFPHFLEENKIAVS
Technique: universal PBM
Molecule type: double-stranded DNA, one strand shown
Sample: in vitro
Concentration: 600 nM
Setting: 8-mer, flanks averaged, mean of replicates
Reading: higher = stronger binding
Strand | E-score
AGTCTAGC | -0.106
CTTGCTCA | -0.237
CTTGTGTA | 0.172
AACGCCTT | -0.0208
CTCCGTGA | -0.18
ATTGGAAC | 0.149
CATCACCG | -0.14
AACAAGAT | 0.157
GAACGCTC | -0.217
ATCCTGTC | 0.0718
GGAGAGGA | -0.219
AGACCTCA | -0.145
TACTCCGA | -0.0304
ACATCACA | 0.225

Block 2
Target: Histone acetyltransferase KAT6A, winged helix 1, GST fusion (KAT6A, Homo sapiens, UniProt Q92794, residues 1-85)
Technique: protein binding microarray
Molecule type: double-stranded DNA, one strand shown
Sample: in vitro
Concentration: not given
Setting: 8-mer, flanks averaged, mean of 2 arrays, mostly near background
Baseline: not given
Reading: higher = stronger binding
Construct (chain): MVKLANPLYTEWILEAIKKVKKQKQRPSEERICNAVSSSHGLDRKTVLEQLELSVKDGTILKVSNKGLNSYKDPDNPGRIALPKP
Strand | E-score
ATAAAGGA | -0.181
AGAAACGA | -0.21
CCAACCGG | 0.0276
ACACCTCA | -0.144
CAGGCCGG | 0.127
CGTATACC | 0.0721
AAAGTAGT | -0.112
ATCTCCCG | 0.259
ACGAGAAT | -0.163
TCAAGACA | -0.108
GTTATTTA | 0.0504
GGGTCGAA | -0.113
AGTGACGA | -0.237

Block 3
Target: RING finger protein unkempt homolog, zinc fingers 1-6, GST-SBP tag (UNK, Homo sapiens, UniProt Q9C0B0, residues 30-357)
UniProt Q9C0B0, sequence (30-357, looked up): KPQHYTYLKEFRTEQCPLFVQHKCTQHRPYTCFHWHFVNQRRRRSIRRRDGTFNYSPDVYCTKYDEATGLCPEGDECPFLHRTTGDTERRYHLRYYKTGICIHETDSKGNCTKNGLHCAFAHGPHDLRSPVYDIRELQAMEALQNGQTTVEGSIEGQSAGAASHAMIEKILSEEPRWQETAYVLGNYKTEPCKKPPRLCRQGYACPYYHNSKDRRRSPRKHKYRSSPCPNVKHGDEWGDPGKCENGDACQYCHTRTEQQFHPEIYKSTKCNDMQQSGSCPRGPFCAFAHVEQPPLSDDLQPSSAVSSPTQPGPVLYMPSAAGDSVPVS
Technique: RNA Bind-n-Seq
Molecule type: RNA
Sample: in vitro
Concentration: not given
Setting: RNA with constant flanks, ends assumed
Baseline: input RNA pool
Reading: higher = stronger binding
All sequences stand within: GGGAGUUCUACAGUCCGACGAUC … CAACAGAGGAUUGAGCAUCA
Strand | bound/input enrichment [ratio]
UUUUCUAGGAUGUCUUCUGAGAUUGGAAGGGAAAAGAGUCAGGACUGGGGCUCUGCUGGACCCGGAGGAGUAUUUAAGGUGGAGUGGAUACGAAAAGAAAGCCUUCCCUUUCAAUUUGCA | 0.404
CGAAACAGCAGCAGGUGACGACGGAGAUGAAGUAUUUGUAGAGGCGGAGUCUGAAGGUAUCCGUUCAGAGGCAGGCCUAGAAAUUGAUAGCCAGCAGGAAGAGGAGCCUGUCCAAGCAUC | 0.495
AUGUGCAAGGAGAUUAUUCCAACUAGUGAAUUUAUUAACAGUAAAUUAACAGCAAAAGCAAACCGGCAGCUUCAAGACCCUCUAGUAAUCAUGACAGGAAACAUCCCAACAUGGCUCACU | 1.35
CGCUGAUGUGAACCUUUUUAUAGAUUGUAGUAACCUGCAGAAAGAAGUAGGUUUUUAUUUUCCGGAAGUUAUGUACCAUAAUUUUAAACUUAAGUUUCUCUAAUAUUACUAACUAUAAAA | 0.791
CAUGUCUGCCAGGAUGAACACCAACUUUACAAUGAAUUUUUCACAAAACCAACAUCAAAAUCCGAUGAGCUUUUGGAGAAACUGUGUGUGUCAUUGUAUGAUGUCUUCAGGCCAUUGAUC | 0.125
GAAUUUGGACAAGUUUUGGCUUCCUGUUCUUUUGACCGAACAGCAGCUGUAUGGGAAGAAACCGUGGGAGAAUCAAACGAUAAACUUCGAGGACAGAGUCACUGGGUGAAGAGGACAACU | 0.111

Block 4
Substance: PhoQ, residues 284 288 289 292 302 303 TTSMTC
Technique: Sort-seq
Refers to: YFP reporter
Sample: E. coli
Setting: PhoQ-PhoP variant library
Added: 10 µM Mg2+
Baseline: high Mg2+ state
Reading: higher = stronger signaling
target | fold induction
PhoP, residues 12 14 15 18 19 TQCLL (Escherichia coli, UniProt P23836) | 14.7
PhoP, residues 12 14 15 18 19 ICWRQ (Escherichia coli, UniProt P23836) | 14.2
PhoP, residues 12 14 15 18 19 VHTVL (Escherichia coli, UniProt P23836) | 6.61

Excerpt of the above (block 3):
Strand | bound/input enrichment [ratio]
AUGUGCAAGGAGAUUAUUCCAACUAGUGAAUUUAUUAACAGUAAAUUAACAGCAAAAGCAAACCGGCAGCUUCAAGACCCUCUAGUAAUCAUGACAGGAAACAUCCCAACAUGGCUCACU | 1.35
CGCUGAUGUGAACCUUUUUAUAGAUUGUAGUAACCUGCAGAAAGAAGUAGGUUUUUAUUUUCCGGAAGUUAUGUACCAUAAUUUUAAACUUAAGUUUCUCUAAUAUUACUAACUAUAAAA | 0.791
CAUGUCUGCCAGGAUGAACACCAACUUUACAAUGAAUUUUUCACAAAACCAACAUCAAAAUCCGAUGAGCUUUUGGAGAAACUGUGUGUGUCAUUGUAUGAUGUCUUCAGGCCAUUGAUC | 0.125
GAAUUUGGACAAGUUUUGGCUUCCUGUUCUUUUGACCGAACAGCAGCUGUAUGGGAAGAAACCGUGGGAGAAUCAAACGAUAAACUUCGAGGACAGAGUCACUGGGUGAAGAGGACAACU | 0.111
